Measurements from different studies.
Each line is one published result; not all experiments were run side by side. Values joined by “and” are separate records of one study, mostly repeats; a detail may differ. Numbers after ± are the reported error.
BCHE: Cholinesterase (BCHE, Homo sapiens, UniProt P06276)
Sequence of UniProt P06276 (whole entry, looked up): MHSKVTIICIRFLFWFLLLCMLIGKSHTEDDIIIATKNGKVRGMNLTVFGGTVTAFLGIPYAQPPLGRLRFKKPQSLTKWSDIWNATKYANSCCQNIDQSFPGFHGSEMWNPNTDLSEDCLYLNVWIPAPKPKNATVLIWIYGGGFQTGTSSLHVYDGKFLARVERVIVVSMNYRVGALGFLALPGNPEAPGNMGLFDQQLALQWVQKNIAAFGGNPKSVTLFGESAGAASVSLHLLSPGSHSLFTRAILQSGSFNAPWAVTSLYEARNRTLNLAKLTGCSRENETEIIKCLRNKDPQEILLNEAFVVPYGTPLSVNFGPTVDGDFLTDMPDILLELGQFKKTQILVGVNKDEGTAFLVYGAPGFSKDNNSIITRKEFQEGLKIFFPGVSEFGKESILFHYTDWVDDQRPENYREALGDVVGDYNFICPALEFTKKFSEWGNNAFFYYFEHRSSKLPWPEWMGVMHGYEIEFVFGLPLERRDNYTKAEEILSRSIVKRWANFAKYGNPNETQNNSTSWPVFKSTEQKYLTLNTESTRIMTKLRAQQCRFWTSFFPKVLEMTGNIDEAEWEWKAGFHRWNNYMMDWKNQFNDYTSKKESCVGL

SMILES	target or system	assay	system	setting	how to read	quantity	value
Cc1ccc(-c2ccnc(Nc3ccc(N4CCN(C)CC4)c(C(F)(F)F)c3)n2)cc1	–	–	zebrafish embryos	50 µM, 5 d	–	toxicity	0%
CCOC(=O)C(=O)c1csc(NC=O)n1	BCHE	inhibitor, fluorometric	–	–	–	IC50	1.48 ± 0.48 µM
COC(=O)c1c(-c2cc(OC)c(OC)c(OC)c2)c2ccc(OCc3ccccn3)cc2c(=O)n1-c1ccc(N)cc1	Plasmodium falciparum	–	D10	–	–	IC50	6.31 µM
C[C@]1(CO)Cc2ncn(-c3ccc(C#N)c(Cl)c3)c2C(=O)O1	–	–	Japanese subjects	80 mg single dose	–	any adverse event incidence	16.7%
CC(C)[C@H](N)C(=O)NCCCS(=O)(=O)O	–	–	human, plasma	oral, 265 mg twice daily, week 65, steady state, extrapolated	–	AUC(0-12h)	11300 ng·h/mL
Clc1ccc(-c2ccc(Cl)c(Cl)c2Cl)cc1Cl	–	–	polyethylene-water partitioning	PCB compilation	baseline: maximum over minimum K	literature range factor	3
CC(C)[C@@H]1CC[C@@H](C)C[C@@H]1O	–	acute oral toxicity OECD	Swiss albino mice, serum	oral, 300 mg/kg	–	creatinine	0.94 ± 0.06 mg/dL
N.N.[Cl][Pt][Cl]	–	–	mouse xenograft model	dose not given, day 0, group mean	–	body weight	25.2 g
CCN(CC)[C@@H]1CCc2c(F)ccc(O)c2C1	Plasmodium falciparum	–	D10	–	–	IC50	2.51 µM
CO[C@H]1C[C@@H]2CC[C@@H](C)[C@@](O)(O2)C(=O)C(=O)N2CCCC[C@H]2C(=O)O[C@H]([C@H](C)C[C@@H]2CC[C@@H](OC(=O)NCCOCCOCCOCCOCCOCCOCCOCCOCCC(=O)N3CCc4cc(Cn5nc(-c6ccc7oc(N)nc7c6)c6c(N)ncnc65)ccc4C3)[C@H](OC)C2)C[C@@H](O)[C@H](C)/C=C(\C)[C@@H](O)[C@@H](OC)C(=O)[C@H](C)C[C@H](C)/C=C/C=C/C=C/1C	–	dose-escalation trial	patients with advanced solid tumours	intravenous, 1.6 mg/3 mg weekly, any grade	–	maculopapular rash TEAE incidence	0%
c1ccc2c(c1)cc1ccc3cccc4ccc2c1c34	–	–	polyethylene-water partitioning	PAH compilation	–	literature range of log K	5.75 to 7.24 log units
Nc1c2c(nc3ccccc13)CCCC2O (centres unmarked)	BCHE	inhibitor, fluorometric	–	–	–	IC50	0.32 ± 0.25 µM
CCN(CCO)CCCC(C)Nc1ccnc2cc(Cl)ccc12 (centres unmarked)	–	–	newly diagnosed glioblastoma patients	oral, 400 mg/dose, grade 1, with: radiotherapy plus temozolomide	–	platelet count decreased patients	66%
C=C(CN(C(=O)c1c(C(F)F)nn(C)c1F)C1CC1)c1ccc(Cl)cc1Cl	–	static acute toxicity test	zebrafish (Brachydanio rerio)	1.00 mg a.i./L, 72 h	–	mortality	50%
CC(C)(c1ccccc1)c1cc(-n2nc3ccccc3n2)c(O)c(C(C)(C)c2ccccc2)c1	–	exposure assessment	human, age 16-21 years	spray sunscreen	–	mean daily dermal uptake	7.95 ng/kg body weight/day
C[C@@H](NC(=O)N1C(=O)[C@H](Cc2ccnc(N)c2)[C@H]1C(=O)O)C1CCCCC1	–	–	healthy Chinese adult volunteers	continuous intravenous infusion, dose not given, 5.0 days, CTCAE 5.0, all doses	–	decreased neutrophil	0%

SMILES	target or system	assay	system	setting	how to read	quantity	value
COc1cc2c(Oc3ccc4[nH]c(C)cc4c3F)ccnc2cc1OCC1(N)CC1	–	–	paediatric recurrent refractory sarcoma	concentration not given, whole group	–	grade 1 or 2 Hypothyroidism	58.8%
CC(=O)c1c(C)c2cnc(Nc3ccc(N4CCNCC4)cn3)nc2n(C2CCCC2)c1=O	–	–	healthy wild-type C57BL/6 mouse pups	oral, daily from postnatal day P10	–	MTD	100 mg/kg/day
N.N.O=C([O-])C1(C(=O)[O-])CCC1.[Pt+2]	–	ICP-MS platinum, refers to: platinum	human patients, plasma ultrafiltrate	dose not given, carboplatin target AUC 3, cycle 1 day 1	–	AUC(0-48 h)	64500 ng·h/mL
COc1ccc(-c2c(-c3ccc(C#N)c(F)c3)nc(N3CCC(N)CC3)n(C)c2=O)cc1F	–	refers to: Leukopenia	relapsed/refractory marginal zone lymphoma patients	oral, 60 mg, grade 3 to 4, dose expansion	–	treatment-related adverse event incidence	0%
Clc1ccc(Cl)c(-c2cc(Cl)ccc2Cl)c1	–	–	Sprague Dawley rat	intraperitoneal, 1 mg/kg	–	relative liver weight	0.0416 g/g body weight
CC/C(=C(\c1ccccc1)c1ccc(OCCN(C)C)cc1)c1ccccc1	–	–	CD-1 mouse, male, plasma	intraperitoneal, 3 mg/kg	–	Tmax	2 h
CC[C@H](C)[C@@H]1NC(=O)[C@@H]2CCCN2C(=O)[C@H](CC(C)C)NC(=O)[C@H](CC(C)C)NC(=O)CNC(=O)[C@@H](NC(=O)[C@@H](NC(=O)[C@H](CC(=O)O)NC(=O)CNC(=O)[C@@H](NC(=O)[C@H](C)NC(=O)CNC(=O)[C@H](CCCCN)NC(=O)[C@H](CC(C)C)NC(=O)[C@H](CC(C)C)NC(=O)[C@H](CCCCN)NC(=O)CNC(=O)[C@@H](NC(=O)[C@@H](N)CC(C)C)C(C)C)C(C)C)C(C)C)CSSC[C@@H](C(=O)O)NC1=O	–	two-compartment model	female C57BL/6 mouse, plasma	intravenous, 10 mg/kg	–	elimination half-life (beta)	~6.59 h
O=C(O)CCCOc1ccc(F)cc1-c1cc(-c2ccccc2C(F)(F)F)n(-c2ccccc2)n1	–	–	female Crl:CD(SD) rats, thymus	intravenous, 25 µg/kg, 1 d	–	organ weight	0.52 ± 0.09 g
COc1cccc(Oc2ccccc2NC(=O)CNC(=O)c2cccc3ccccc23)c1	–	–	esterase-deficient SCID mice, male, blood	oral, 100 mg/kg/day, 14 days, toxicity study	–	hemoglobin	15.9 g/dL and 15.3 g/dL and 14.4 g/dL
O[C@H]1CCCN[C@@H]1CCCn1cnc2c(Cl)c(Cl)ccc21	–	–	healthy CYP2D6 EM and UM, plasma	oral, 150 mg single dose	–	median Cmax	255 ng/mL
N.N.O=C([O-])C1(C(=O)[O-])CCC1.[Pt+2]	–	refers to: unbound platinum	human, plasma ultrafiltrate	intravenous, AUC 3, median, dose level -1	–	Tmax	0.6 h
CC(=O)c1c(C)c2cnc(Nc3ccc(C4CCN(CCS(C)(=O)=O)CC4)cn3)nc2n(C2CCCC2)c1=O	–	–	HR+/HER2- advanced breast cancer patients	oral, dose not given	–	patients with SAE	15.8%
CC(C)C[C@@H]1NC(=O)CNC(=O)[C@H](CC(N)=O)NC(=O)[C@H](CCCNC(=N)N)NC(=O)[C@H]([C@@H](C)O)NC(=O)[C@@H]2CSSC[C@@H]3NC(=O)[C@H](CCCCN)NC(=O)CNC(=O)CNC(=O)[C@H](C(C)C)NC(=O)[C@@H]4CSSC[C@H](NC(=O)[C@H]([C@@H](C)O)NC(=O)[C@H](CSSC[C@H](NC(=O)[C@H](C(C)C)NC(=O)[C@@H]5CCCN5C1=O)C(=O)NCC(=O)N[C@@H](CCC(=O)O)C(=O)N[C@@H]([C@@H](C)O)C(=O)N4)NC(=O)CNC(=O)[C@@H]1CCCN1C(=O)[C@H]([C@@H](C)O)NC(=O)[C@H](CC(N)=O)NC3=O)C(=O)N[C@@H](CO)C(=O)N[C@@H](Cc1c[nH]c3ccccc13)C(=O)N1CCC[C@H]1C(=O)N[C@@H](C(C)C)C(=O)N2	–	HPLC	ammonium bicarbonate	180 µM, 7 days, pH 9.0, 25 °C, deamidation stability	–	remaining peptide	93.4 ± 0.6%
CCCCCCCCCCCCCCCC(=O)N[C@@H](CCC(=O)NCCCC[C@H](NC(=O)[C@H](CC(=O)O)NC(=O)[C@H](CO)NC(=O)[C@@H](NC(=O)[C@H](Cc1ccccc1)NC(=O)[C@@H](NC(=O)CNC(=O)[C@H](CCC(N)=O)NC(=O)[C@H](CO)NC(=O)[C@@H](N)Cc1c[nH]cn1)[C@@H](C)O)[C@@H](C)O)C(=O)N[C@@H](CO)C(=O)N[C@@H](CCC(=O)O)C(=O)N[C@@H](Cc1ccc(O)cc1)C(=O)N[C@@H](CC(C)C)C(=O)N[C@@H](CC(=O)O)C(=O)N[C@@H](CO)C(=O)N[C@@H](CCC(=O)O)C(=O)N[C@@H](CCCNC(=N)N)C(=O)N[C@@H](C)C(=O)N[C@@H](CCCNC(=N)N)C(=O)N[C@@H](CC(=O)O)C(=O)N[C@@H](Cc1ccccc1)C(=O)N[C@H](C(=O)N[C@@H](C)C(=O)N[C@@H](Cc1c[nH]c2ccccc12)C(=O)N[C@@H](CC(C)C)C(=O)N[C@@H](CCC(=O)O)C(=O)N[C@@H](C)C(=O)NCC(=O)NCC(=O)O)C(C)C)C(=O)O	–	refers to: Diarrhoea	humans CrCl 30 to 45 mL/min	subcutaneous, 100 µg single dose	–	treatment-related adverse events	9.1%
CN1CC[C@@H](c2c(O)cc(O)c3c(=O)cc(-c4ccc(C(F)(F)F)cc4Cl)oc23)[C@@H]1CO	–	refers to: respiratory failure	AML	oral, 150 mg, grade 3 to 4, intermittent dosing	–	patients with adverse event	25%
c1ccc2cc3c(cc2c1)-c1cccc2cccc-3c12	–	–	PDMS-water partitioning	PAH compilation	baseline: maximum over minimum K	literature range factor	10

Excerpt of the above:
SMILES	target or system	assay	system	setting	how to read	quantity	value
N.N.[Cl][Pt][Cl]	–	–	mouse xenograft model	dose not given, day 0, group mean	–	body weight	25.2 g
COc1ccc(-c2c(-c3ccc(C#N)c(F)c3)nc(N3CCC(N)CC3)n(C)c2=O)cc1F	–	refers to: Leukopenia	relapsed/refractory marginal zone lymphoma patients	oral, 60 mg, grade 3 to 4, dose expansion	–	treatment-related adverse event incidence	0%
CC(C)(c1ccccc1)c1cc(-n2nc3ccccc3n2)c(O)c(C(C)(C)c2ccccc2)c1	–	exposure assessment	human, age 16-21 years	spray sunscreen	–	mean daily dermal uptake	7.95 ng/kg body weight/day
CCN(CC)[C@@H]1CCc2c(F)ccc(O)c2C1	Plasmodium falciparum	–	D10	–	–	IC50	2.51 µM
CC/C(=C(\c1ccccc1)c1ccc(OCCN(C)C)cc1)c1ccccc1	–	–	CD-1 mouse, male, plasma	intraperitoneal, 3 mg/kg	–	Tmax	2 h
